Published values collected from several papers.
Protocols differ between the studies behind these lines. Several values in a cell are separate wells, animals, samples, runs or records. ± marks the error that the study gave.

SMILES	organism	assay	test system	setting	how to read	quantity	value
Oc1ccc(CCCCCCCCC(O)c2c(O)cccc2O)cc1O (stereo not drawn)	SARS-CoV-2		HEK293T ACE2, Delta B.1.617.2		reference: CC50 over EC50	selectivity index	2.7
Clc1ccc(CNC23CC4CC(CC(C4)C2)C3)s1	Influenza A virus		A/WSN/33 M2-S31N			EC50	3.5 µM
N=C(N)SCc1ccc(B(O)O)cc1	Severe acute respiratory syndrome coronavirus 2	viral entry, inhibitor	A549-hACE2-TMPRSS2	pseudovirus		EC50	66 µM
N#CC1(c2ccc3c(N)ncnn23)OC(COP(=O)(O)OP(=O)(O)OP(=O)(O)O)C(O)C1O (stereo not drawn)	Severe acute respiratory syndrome coronavirus 2	viral replication, inhibitor	Vero C1008	48 h		EC90	6.45 µM
CC(=O)Oc1ccc(CCCCCCCCC(=O)c2c(OC(C)=O)cccc2OC(C)=O)cc1OC(C)=O	SARS-CoV-2		HEK293T ACE2, Delta B.1.617.2		reference: CC50 over EC50	selectivity index	4.5
COc1ccc(CNC23CC4CC(CC(C4)C2)C3)s1	Influenza A virus		A/WSN/33 M2-S31N			EC50	3.9 µM
COc1ccc2nccc(CC[C@H]3OC[C@H](NCc4ccc5c(c4)OCCO5)CO3)c2c1	Mycobacterium tuberculosis		H37Rv katG deletion			MIC	16 µg/mL
N=C(N)NCCC[C@H](NC(=O)[C@@H]1CCCN1C(=O)[C@H](N)Cc1ccccc1)C(=O)CCl	Severe acute respiratory syndrome coronavirus 2	viral entry, inhibitor	A549-hACE2-TMPRSS2	50 µM, pseudovirus		inhibition	36%
COc1ccc2nccc(CC[C@H]3OC[C@H](NC(=O)c4ccc5c(c4)NC(=O)CO5)CO3)c2c1	Mycobacterium tuberculosis		H37Rv katG deletion			MIC	0.125 µg/mL
CC[C@H](C)[C@@H]1NC(=O)[C@H](Cc2c[nH]c3ccccc23)NC(=O)[C@H](C)NC(=O)[C@H](CC(N)=O)NC(=O)[C@H](Cc2ccc(O)cc2)NC(=O)CNC(=O)[C@H](Cc2ccc(O)cc2)NC(=O)[C@H](C(C)C)NC(=O)[C@H](C(C)C)NC(=O)CNC(=O)[C@H](C)NC(=O)[C@H](CCCCN)NC(=O)[C@@H](Cc2ccc(O)cc2)NC(=O)CSC[C@@H](C(N)=O)NC(=O)[C@H](CCCNC(=N)N)NC1=O	SARS-CoV-2 spike pseudotyped lentivirus	pseudovirus neutralization	HEK293T overexpressing ACE2			inhibition	> 50 µM
O=C(CCCCCCc1ccc(O)c(O)c1)c1c(O)cccc1O	SARS-CoV-2		HEK293T ACE2, Delta B.1.617.2		reference: CC50 over EC50	selectivity index	2.3
Oc1cc(CNc2ccccc2)ccc1Oc1ccc(Cl)cc1Cl	Mycobacterium tuberculosis		V2475			MIC	40 µg/mL
COc1ccc2ncc(F)c(C[C@H](O)[C@H]3OC[C@H](NCc4ccc(Cl)c(Cl)c4)CO3)c2c1	Mycobacterium tuberculosis		H37Rv katG deletion			MIC	0.125 µg/mL
CCCC/C=C/C(=O)N[C@@H](Cc1csc2ccccc12)C(=O)N[C@H]1COC(=O)[C@@H]2C[C@@H](C)CN2C(=O)[C@H](C)NC(=O)[C@@H]2CCCCN2C(=O)[C@@H]2CCCN2C1=O	SARS-CoV-2 Omicron		Huh-7	concentration not given, 3 h, unit not given	reference: DMSO	viral RNA level	0.297 and 0.284
CC(CCC(=O)[O-])C1CCC2C3CCC4CC(O)CCC4(C)C3CCC12C.C[N+](C)(C)CC(O)CC(=O)O (stereo not drawn)	SARS-CoV-2 Delta variant	virucidal activity	A549-hACE2, B.1.617.2	72 h post infection, virus pretreated 1 h, 37 °C		EC50	21.9 ± 5.24 µg/mL
CC(C)CC(C(=O)N1CC2(CC1C#N)C(=O)Nc1ccccc12)N(C)C(=O)c1cc2c(F)cc(F)c(F)c2[nH]1 (stereo not drawn)	SARS-CoV-2	viral replication, infectious virus	Vero E6-TMPRSS2, Omicron variant	0.9 µM		inhibition	99.9% and 100%
O=C(CCCCCCCCCCc1ccc(O)c(O)c1)c1c(O)cccc1O	SARS-CoV-2		HEK293T ACE2, Gamma P.1		reference: CC50 over EC50	selectivity index	1.4
COc1ccc2ncc(F)c(C[C@H](O)[C@H]3OC[C@H](NCc4cc5c(nn4)OCCS5)CO3)c2n1	Mycobacterium tuberculosis		H37Rv katG deletion			MIC	2 µg/mL
Oc1cc(Cn2ccnn2)ccc1Oc1ccc(Cl)cc1Cl	Mycobacterium tuberculosis		V2475			MIC	40 µg/mL
COc1ccc2ncc(F)c(CC[C@@]3(O)CO[C@@H]4[C@@H](NCc5ccc(Cl)c(Cl)c5)CO[C@@H]43)c2n1	Mycobacterium tuberculosis		H37Rv katG deletion			MIC	1 µg/mL
CC1OC(OC2C(OC(=O)C34CCC(C)(C)CC3C3=CCC5C6(C)CCC(OC7OC(CO)C(O)C(O)C7O)C(C)(C)C6CCC5(C)C3(C)CC4O)OCC(O)C2O)C(O)C(O)C1OC1OCC(O)C(OC2OCC(O)C(OC3OCC(O)C(O)C3O)C2O)C1O (stereo not drawn)	SARS-CoV-2	viral infection	Vero cells, delta B.1.617.2			IC50	1.67 µM
COc1ccc2nccc(CC[C@H]3OC[C@H](NC(=O)c4ccc5c(n4)NC(=O)CS5)CO3)c2c1	Mycobacterium tuberculosis		H37Rv katG deletion			MIC	0.125 µg/mL
CC(C)C(=O)OC[C@H]1O[C@@](C#N)(n2ccc(N)nc2=O)[C@H](O)[C@@H]1O	SARS-CoV-2 Omicron	viral replication	Calu-3			EC90	10.4 ± 2.6 µM
COc1ccc2ncc(F)c(C[C@H](O)[C@H]3OC[C@H](NCc4ccc(Cl)c(Cl)c4)CO3)c2n1	Mycobacterium tuberculosis		H37Rv katG deletion			MIC	0.125 µg/mL
NC(=S)N/N=C/c1ccc(OC(=O)CC2SC(=O)NC2=O)cc1 (stereo not drawn)	Mycobacterium tuberculosis	Alamar blue	MDR 210			MIC	45.4 µM
COc1ccc2nccc(CC[C@H]3OC[C@H](NCc4ccc(Cl)c(Cl)c4)CO3)c2c1	Mycobacterium tuberculosis		H37Rv katG deletion			MIC	1 µg/mL
CC(C)[C@H](CNC(=O)[C@@H](NC(=O)c1cccc(-c2ccccc2)n1)[C@@H](C)O)B(O)O	Severe acute respiratory syndrome coronavirus 2	viral replication		10 µM		inhibition	76%

A few entries again:
SMILES	organism	assay	test system	setting	how to read	quantity	value
Oc1cc(Cn2ccnn2)ccc1Oc1ccc(Cl)cc1Cl	Mycobacterium tuberculosis		V2475			MIC	40 µg/mL
N#CC1(c2ccc3c(N)ncnn23)OC(COP(=O)(O)OP(=O)(O)OP(=O)(O)O)C(O)C1O (stereo not drawn)	Severe acute respiratory syndrome coronavirus 2	viral replication, inhibitor	Vero C1008	48 h		EC90	6.45 µM
N=C(N)NCCC[C@H](NC(=O)[C@@H]1CCCN1C(=O)[C@H](N)Cc1ccccc1)C(=O)CCl	Severe acute respiratory syndrome coronavirus 2	viral entry, inhibitor	A549-hACE2-TMPRSS2	50 µM, pseudovirus		inhibition	36%
